# Measured values of several laboratories.
# A part holds a random share of what one study measured.

# Block 1
# Target: Ras GTPase-activating protein-binding protein 1, full length (G3BP1, Homo sapiens, UniProt Q13283)
# UniProt Q13283, sequence (whole entry, looked up): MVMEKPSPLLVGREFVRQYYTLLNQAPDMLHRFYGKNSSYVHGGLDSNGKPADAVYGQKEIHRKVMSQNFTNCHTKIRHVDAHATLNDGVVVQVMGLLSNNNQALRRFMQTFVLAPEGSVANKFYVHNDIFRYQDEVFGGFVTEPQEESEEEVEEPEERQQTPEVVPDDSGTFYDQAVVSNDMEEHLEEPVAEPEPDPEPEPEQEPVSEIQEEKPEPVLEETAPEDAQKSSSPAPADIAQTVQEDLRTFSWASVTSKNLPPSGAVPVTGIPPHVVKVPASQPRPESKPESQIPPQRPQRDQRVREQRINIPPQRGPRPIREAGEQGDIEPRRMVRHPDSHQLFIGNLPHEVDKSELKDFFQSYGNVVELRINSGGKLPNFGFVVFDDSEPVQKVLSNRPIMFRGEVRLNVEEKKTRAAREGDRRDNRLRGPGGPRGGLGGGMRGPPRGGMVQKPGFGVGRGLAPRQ
# Method: RNA Bind-n-Seq
# Form: RNA
# Sample: in vitro
# Concentration: 200 nM
# Notes: whole 134-nt RNA, ends assumed
# Added: 150 mM LiCl
# Reference: input library
# Direction: higher = stronger binding
# Library: 7-deaza-guanosine replaces G
Oligonucleotide,log2 enrichment
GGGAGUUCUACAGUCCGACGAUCUAACUUUAGAGGAGGAUCUGAUGGAUAUGGCAGUGGACGUGGAUUUGGGUAUGGCUAUAAUGGGUAUGGAGGAGGACCUGGAGGUGGCAAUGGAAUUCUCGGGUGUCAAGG,-0.362
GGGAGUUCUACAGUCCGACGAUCUUGAUGCCCCAGAUGUGGAUGUUCAUGGCCCAGACUGGCACCUGAAGAUGCCUAAGAUGAAAAUGCCCAAGUUCAGCAUGCCUGGCUUCAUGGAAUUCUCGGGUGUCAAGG,-0.853
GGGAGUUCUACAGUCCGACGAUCGUCCUGUGCUACACAUCGUAUGUACCGAAUCGGGAAAAAAAGGGUGGGAAAAAAAGGGAAAGUAUUAUGUUACGCCGUUCGGAUCUGCACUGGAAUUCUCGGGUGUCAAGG,-0.471
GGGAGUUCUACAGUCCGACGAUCUGGGAGGUGGAUUUUGUUUAUUCUUUUAGCUCAUUUCCAGGGGUGGGAAUUUUUUUUUAAUAUGUGUCAUGAAUAAAGUUGUUUUUGAAAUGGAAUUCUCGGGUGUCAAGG,-0.0543
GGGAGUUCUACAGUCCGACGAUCUCCUCAAGUCCUGUGCUACACAUCGUAUGUACCGAAUCGGUGGAAAGGAGGAAAGUAUUAUGUUACGCCGUUCGGAUCUGCACUUCCAGCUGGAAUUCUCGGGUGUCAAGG,-0.21
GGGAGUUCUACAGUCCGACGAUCGAAACUACCCGUGUGUAAAAAGAAGAUUGGCUUAAAAUGGCUACUGUGAUGGGAACAGUGUCUUAGGGAGAUGCAGCUUGGACUUGAGGUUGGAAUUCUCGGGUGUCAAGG,0.388
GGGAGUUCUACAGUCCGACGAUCCUCAAGUCCUGUGCUACACAUCGUAUGUACCGAAUCGGAAGGGGAAGGGGAAGGAAAGUAUUAUGUUACGCCGUUCGGAUCUGCACUUCCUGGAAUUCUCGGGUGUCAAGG,-0.136
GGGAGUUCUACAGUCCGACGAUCACCAUGCAGGUGGGCAUCUUUGGGAAGUGGGGCAAGGGGGGGAUAGGGAGGGGGGUAACACAUUGGGAACAGGUGGUCCCAGGUCGUUUCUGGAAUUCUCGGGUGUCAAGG,0.154
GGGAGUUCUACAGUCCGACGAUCGCAGGAAGUAAAAACAAACGGAAAUGCUUCGGAUAGUGGCAGGGGUGGGGGUUGCUAAGGAAAGGGUGGGAUGGGAGUGGGUAAAGAGUUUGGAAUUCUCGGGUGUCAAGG,0.0193
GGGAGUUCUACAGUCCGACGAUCUCAAGUCCUGUGCUACACAUCGUAUGUACCGAAUCGGAAAAAGGAGGAAAAAGGAAAGUAUUAUGUUACGCCGUUCGGAUCUGCACUUCCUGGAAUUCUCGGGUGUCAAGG,-0.163
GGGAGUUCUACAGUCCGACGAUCUGGCCCUGGUGGCAUGCGGGGAGGAAGAGUUGGCCUCAUGGAUCGUGGUGGUCCCGGUGGAAUGUUCAGAGGUGGCCGUGGUGGAGACAGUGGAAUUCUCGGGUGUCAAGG,0.161

# Block 2
# Target: Histone acetyltransferase KAT6A, winged helix 2, GST fusion (KAT6A, Homo sapiens, UniProt Q92794, residues 85-181)
# Method: protein binding microarray
# Form: double-stranded DNA, one strand shown
# Sample: in vitro
# Concentration: not given
# Notes: 8-mer, flanks averaged, mean of 2 arrays, mostly near background
# Reference: not given
# Direction: higher = stronger binding
# Construct (chain): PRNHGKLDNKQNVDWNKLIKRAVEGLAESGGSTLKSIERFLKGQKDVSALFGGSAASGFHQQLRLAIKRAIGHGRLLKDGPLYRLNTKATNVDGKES
Oligonucleotide,E-score
AAAAGTAA,0.0191
ATTGCTAC,-0.00879
AACTTCGT,0.0947
ACGGCGCG,0.309
CTCGTGTA,0.0629
ATTCGTAC,0.105
AGTTAAAA,-0.0769
AAGGCAAA,0.188
AGCTAGAG,-0.0396
CGCATCTA,0.0951
GACGTCCC,-0.078
ACCGACAG,0.0734
AATGATAA,0.0667
CCATATGC,-0.0642
GCTAACAC,0.0477
CCTGTATA,-0.199
AAGCTAGG,-0.0895
GCAGTAGA,0.0404
ACCGCACG,0.148
ACTCCTTC,-0.223
CGGGGTAG,-0.0835
AATATGAG,0.0454
GCCTTGCA,0.0227

# Block 3
# Target: RING finger protein unkempt homolog, zinc fingers 1-6, SBP tag (UNK, Homo sapiens, UniProt Q9C0B0, residues 30-357)
# UniProt Q9C0B0, sequence (30-357, looked up): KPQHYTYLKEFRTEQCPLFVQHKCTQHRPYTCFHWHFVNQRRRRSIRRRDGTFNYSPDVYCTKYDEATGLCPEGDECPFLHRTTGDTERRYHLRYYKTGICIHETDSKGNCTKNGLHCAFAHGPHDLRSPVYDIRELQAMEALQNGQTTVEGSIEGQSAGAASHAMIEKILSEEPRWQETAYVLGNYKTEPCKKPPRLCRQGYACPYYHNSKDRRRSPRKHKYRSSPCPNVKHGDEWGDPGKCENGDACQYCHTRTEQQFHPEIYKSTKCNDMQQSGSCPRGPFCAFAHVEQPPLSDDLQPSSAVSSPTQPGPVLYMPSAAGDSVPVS
# Method: RNA Bind-n-Seq
# Form: RNA
# Sample: in vitro
# Concentration: 100 nM
# Notes: RNA with constant flanks, vertebrate orthologous sites, ends assumed
# Reference: input RNA pool
# Direction: higher = stronger binding
Oligonucleotide,bound/input enrichment [ratio]
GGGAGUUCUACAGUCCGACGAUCAUCACAGUCGCUUUUUACCACCUCAAUGAGGUAGAGUCUCUCUUGGCAUGUGGUUGUUACAAGAGCCAGUUGCACCUGACAAGUCUCUCCACAUUUCAUUUCUUUCGCAUUCUUGGUCUUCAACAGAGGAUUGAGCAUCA,0.645
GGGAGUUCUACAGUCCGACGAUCCAGCCAACUCCCUGAUCGGCCGGGCCGCCCACAUCGCCGUGCUCGAUUCUGAGAUCUUCCUGGAGAAGUUCUUCCUAGUUGCGGGCCUCAAGUUCUUUCAGUAGAACUGUGGCAGGAUCACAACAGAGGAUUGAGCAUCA,0.887
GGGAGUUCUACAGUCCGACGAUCGCAUGCACAUGCCGCUGUCACCAAAAGCAAACACGGUCUUCAGAAUCUCCAAUAGCAUUUUUAGUAUUCUCUCCCUCUUUCCCUUCUGUUUCCCUAAUGCUUUAAAUGAUUAGAAGUCCUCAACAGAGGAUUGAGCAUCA,4.19
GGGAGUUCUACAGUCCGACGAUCUUUUUUUUAAUUUAAUUUUUCCCUUUUUUUUUGGGGGGGGGUCAAGUUUGCUCUACCAAAUAGUGAUCGUAACAAAUUUGAUCUGUUUUGGAUGUUACCAUAGUGAGAUGCAAUUCUAUACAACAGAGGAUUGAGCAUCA,3.93
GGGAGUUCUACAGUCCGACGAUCGUCUAGAGAGGGGUGAAACGAACAUAUCCGAAUAAAGAAAUGCAAUGCUGAAAGUCCUAUCAGUACUAAGGUCAGCUGGAGAAUUUAAAGAAGCCUCUCGUAGUAAUUCUAAAAUGAAAACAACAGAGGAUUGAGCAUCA,0.665
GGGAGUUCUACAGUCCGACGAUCUAUUGUAUGUAGAGAAAAAAUUUUCCUUGACCCCAUUGUGAAAUUCCCUAGCAAUUUAUUUAGAAUCUUCAUUUUUCUCAUUCAAGCUCACUGUAUUAGUUAUUUUUAGCUCAUAAUUAACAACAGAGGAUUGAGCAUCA,3.45
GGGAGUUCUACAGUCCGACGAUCGGGACGCUUCGAUGUAAAGAUUGAAGUUAAGAGCUGAUCACAAGCACAAACCUUUCCCACUAGCCAUUUAAAGAGUUAAGAAAAAGAUACAAAACAACCUACUAGUCUUGAACAAACUGUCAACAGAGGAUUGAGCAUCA,1.61
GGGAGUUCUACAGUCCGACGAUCGUGACUUUGGACGUCCGUUCAUCCUCGGUGUAGGGAUUACUUAGUGCCGGGCCUUCCACGUUUGGUUUUUUCUUCUGGACAGGAGGUCUCUGCAGCAACCAUGUUACGCCAGAUCAUCGGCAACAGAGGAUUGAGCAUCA,0.377
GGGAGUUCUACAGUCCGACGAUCGCUCUCCUCUGAACCCCAUCUCUUCUGUCUCAUAGUGCAGAAAUGCUCUUAACUAUGUUUUAGUGGACUUGUUUUAAGUUUAGAGAAAUUUCCAGUACAGAUACUGUGAGCUGACAUGGACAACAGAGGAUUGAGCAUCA,0.459
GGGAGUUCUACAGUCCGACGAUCCUUAUUUUCAGGUUGGCUCUAGUGGAAAAGUUAUAGGAAUUGACCAUAUUAAAGAGCUAGUAGAUGACUCAAUAAAUAAUGUCAAAAAGGACGAUCCAGUGCUUUUGUCUUCAGGAAGAGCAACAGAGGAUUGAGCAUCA,0.577
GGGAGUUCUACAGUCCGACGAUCCUAUUGUGUGAAGCAUGUCUUUCCAGAGAAAUAACAUUAUAAAAGUAUUACUAAACAAUUUAAAGUCUUAAAGUUUUAAAUUAUAUGUCAAGCAAUGAAAGUGAAUUUGAGAGUGUAAGGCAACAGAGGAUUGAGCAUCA,0.415

# Block 4
# Target: Interferon regulatory factor 7, full length, phosphomimetic (IRF7, Homo sapiens, UniProt Q92985, residues 1-503, S471D/S472D/S475D/S476D/S477D/S483D/S484D/S487D)
# Method: protein-binding microarray
# Form: double-stranded DNA, one strand shown
# Sample: in vitro
# Concentration: 2200 nM top
# Notes: 60-bp whole probe
# Added: salmon DNA 0.4 mg/ml
# Reference: random background probes
# Direction: higher = stronger binding
# Shared flanks, not repeated: GCCTAGCAC … GTCTTGATTCGCTTGACGCTGCTG
# Residues (chain): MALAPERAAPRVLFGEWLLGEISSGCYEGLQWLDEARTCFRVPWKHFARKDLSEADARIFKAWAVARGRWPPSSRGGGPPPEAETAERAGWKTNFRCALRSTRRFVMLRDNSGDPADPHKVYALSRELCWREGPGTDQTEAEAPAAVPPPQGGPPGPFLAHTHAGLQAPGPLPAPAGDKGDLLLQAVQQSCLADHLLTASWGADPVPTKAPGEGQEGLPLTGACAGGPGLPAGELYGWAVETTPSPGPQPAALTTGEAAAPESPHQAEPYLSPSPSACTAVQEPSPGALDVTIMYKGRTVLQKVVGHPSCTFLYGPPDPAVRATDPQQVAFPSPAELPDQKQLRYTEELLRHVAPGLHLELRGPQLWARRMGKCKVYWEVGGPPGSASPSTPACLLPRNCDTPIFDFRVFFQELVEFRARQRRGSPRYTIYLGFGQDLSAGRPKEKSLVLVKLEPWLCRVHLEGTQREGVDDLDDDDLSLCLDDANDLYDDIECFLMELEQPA
Oligonucleotide,fitted relative affinity [z-score]
TTGGGACTGGGGTATCGGTTAGTGCTA,-0.729
TCACTTCTCCTCTAGGTTACTGTGCTA,2.4
GGGCATTTAGAAAATGGAAATGTGCTA,-0.955
GAGGGTCTCGGACTGGGGACGTGCTAG,-1.21
TTAGAACCGAGTATCGATTAGTGCTAG,-0.0252
TCATGTTTATGTCTGGGACTGTGCTAG,1.15
TCAGGCTTTCCTTTATGACTGTGCTAG,0.806
GACGGTATCCGGACTGGGGACGTGCTA,-0.475
TTAGGAGTGGGGACTGGGTTAGTGCTA,-0.678
TCATCTCTACTTGTGTCACTGTGCTAG,1.59
GACGGTATCGGGACTGTGGACGTGCTA,-0.442
ATCTCACTCTGTCCCTCTGTGTGCTAG,2.33
TCAATTTTCTTTAACTCACTGTGCTAG,0.883
TTAGGAATGGGTCTCGGTTAGTGCTAG,-0.0705
AAATCATTTTCTCTGTTCTAGTGCTAG,1.41
TTAGGTATGGGACTGGGTTAGTGCTAG,-0.213
TCCCTATTATATATATCATAGTGCTAG,1.71
TCATAAGCAAAAATGATACTGTGCTAG,-0.647
TTAGGTATCGGGACTGTGTTAGTGCTA,0.11
TTAGAACTGGGGTTTCGATTCGTGCTA,6.46
GTAGGTTTCGGGTTTCGGTTAGTGCTA,10.6
TTAGGTCTCGATTTCGGTTAGTGCTAG,3.69
CTTTCTTTATGCACTCTTTACGTGCTA,2.24
TCAGATATCAGTTTCGATTAGTGCTAG,5.64
GGCCCTTTGCTTTCCTGATGGTGCTAG,1.01

# Excerpt of the above (block 2):
Oligonucleotide,E-score
ATTCGTAC,0.105
AAAAGTAA,0.0191
AACTTCGT,0.0947
AATATGAG,0.0454
AAGCTAGG,-0.0895
